Measurements gathered from unrelated publications.
Parts stem from different laboratories: compare values within a part only. Substitutions count along the parent as printed.
Chain of UniProt O24409 (whole entry, looked up): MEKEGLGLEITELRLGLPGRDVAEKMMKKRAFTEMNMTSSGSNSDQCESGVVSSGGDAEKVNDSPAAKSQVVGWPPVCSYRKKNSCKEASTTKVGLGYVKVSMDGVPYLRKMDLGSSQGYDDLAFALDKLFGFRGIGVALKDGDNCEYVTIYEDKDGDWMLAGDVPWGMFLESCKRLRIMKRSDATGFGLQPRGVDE
Chain of UniProt O24408 (whole entry, looked up): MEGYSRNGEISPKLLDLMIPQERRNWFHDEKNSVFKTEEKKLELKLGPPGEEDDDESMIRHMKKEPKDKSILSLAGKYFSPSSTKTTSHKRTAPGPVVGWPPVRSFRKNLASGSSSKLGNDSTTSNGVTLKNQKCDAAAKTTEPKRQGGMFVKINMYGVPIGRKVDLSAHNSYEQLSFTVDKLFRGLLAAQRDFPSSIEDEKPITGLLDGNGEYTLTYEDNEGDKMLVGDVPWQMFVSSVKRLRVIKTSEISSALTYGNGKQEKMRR
Chain of UniProt Q13882 (whole entry, looked up): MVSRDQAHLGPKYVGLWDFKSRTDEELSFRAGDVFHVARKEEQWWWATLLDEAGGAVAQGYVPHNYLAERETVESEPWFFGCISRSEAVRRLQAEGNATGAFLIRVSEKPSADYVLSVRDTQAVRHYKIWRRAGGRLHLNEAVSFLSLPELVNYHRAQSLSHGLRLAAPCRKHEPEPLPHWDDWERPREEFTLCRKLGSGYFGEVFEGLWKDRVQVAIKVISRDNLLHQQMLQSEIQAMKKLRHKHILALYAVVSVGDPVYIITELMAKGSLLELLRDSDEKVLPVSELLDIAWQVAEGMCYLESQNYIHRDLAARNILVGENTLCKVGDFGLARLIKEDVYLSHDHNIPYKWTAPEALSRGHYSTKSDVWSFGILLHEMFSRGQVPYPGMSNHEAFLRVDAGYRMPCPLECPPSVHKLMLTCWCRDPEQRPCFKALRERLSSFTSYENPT
Chain of UniProt P93022 (whole entry, looked up): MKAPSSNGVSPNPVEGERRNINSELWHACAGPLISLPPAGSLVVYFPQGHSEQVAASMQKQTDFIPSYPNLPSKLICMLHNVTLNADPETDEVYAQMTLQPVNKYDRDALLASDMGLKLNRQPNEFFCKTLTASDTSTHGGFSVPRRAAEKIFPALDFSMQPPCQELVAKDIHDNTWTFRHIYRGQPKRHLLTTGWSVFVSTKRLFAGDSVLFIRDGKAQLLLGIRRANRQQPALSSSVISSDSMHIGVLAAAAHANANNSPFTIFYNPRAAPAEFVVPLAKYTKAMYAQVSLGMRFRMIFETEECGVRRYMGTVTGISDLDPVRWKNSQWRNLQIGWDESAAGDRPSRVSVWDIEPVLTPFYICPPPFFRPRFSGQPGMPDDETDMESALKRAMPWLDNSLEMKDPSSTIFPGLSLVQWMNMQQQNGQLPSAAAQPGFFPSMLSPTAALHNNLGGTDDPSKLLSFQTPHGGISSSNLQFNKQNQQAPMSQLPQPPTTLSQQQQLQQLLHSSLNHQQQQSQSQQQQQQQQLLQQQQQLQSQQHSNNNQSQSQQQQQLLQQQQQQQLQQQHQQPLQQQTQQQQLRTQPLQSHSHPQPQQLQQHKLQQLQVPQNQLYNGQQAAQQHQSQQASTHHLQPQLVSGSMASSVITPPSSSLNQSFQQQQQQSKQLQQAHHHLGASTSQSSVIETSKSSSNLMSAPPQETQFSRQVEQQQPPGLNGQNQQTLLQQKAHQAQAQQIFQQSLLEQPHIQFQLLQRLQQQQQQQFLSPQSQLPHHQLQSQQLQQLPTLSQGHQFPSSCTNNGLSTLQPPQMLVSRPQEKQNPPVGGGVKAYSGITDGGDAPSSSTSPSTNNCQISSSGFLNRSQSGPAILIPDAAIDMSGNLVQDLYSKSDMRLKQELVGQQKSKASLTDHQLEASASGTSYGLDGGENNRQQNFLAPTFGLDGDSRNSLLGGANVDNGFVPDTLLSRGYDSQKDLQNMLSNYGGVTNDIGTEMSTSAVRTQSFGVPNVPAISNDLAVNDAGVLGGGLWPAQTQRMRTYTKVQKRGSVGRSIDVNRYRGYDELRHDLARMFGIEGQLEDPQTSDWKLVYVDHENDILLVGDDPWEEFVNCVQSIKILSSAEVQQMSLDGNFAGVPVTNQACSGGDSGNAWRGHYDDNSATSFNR
Chain of UniProt P93024 (whole entry, looked up): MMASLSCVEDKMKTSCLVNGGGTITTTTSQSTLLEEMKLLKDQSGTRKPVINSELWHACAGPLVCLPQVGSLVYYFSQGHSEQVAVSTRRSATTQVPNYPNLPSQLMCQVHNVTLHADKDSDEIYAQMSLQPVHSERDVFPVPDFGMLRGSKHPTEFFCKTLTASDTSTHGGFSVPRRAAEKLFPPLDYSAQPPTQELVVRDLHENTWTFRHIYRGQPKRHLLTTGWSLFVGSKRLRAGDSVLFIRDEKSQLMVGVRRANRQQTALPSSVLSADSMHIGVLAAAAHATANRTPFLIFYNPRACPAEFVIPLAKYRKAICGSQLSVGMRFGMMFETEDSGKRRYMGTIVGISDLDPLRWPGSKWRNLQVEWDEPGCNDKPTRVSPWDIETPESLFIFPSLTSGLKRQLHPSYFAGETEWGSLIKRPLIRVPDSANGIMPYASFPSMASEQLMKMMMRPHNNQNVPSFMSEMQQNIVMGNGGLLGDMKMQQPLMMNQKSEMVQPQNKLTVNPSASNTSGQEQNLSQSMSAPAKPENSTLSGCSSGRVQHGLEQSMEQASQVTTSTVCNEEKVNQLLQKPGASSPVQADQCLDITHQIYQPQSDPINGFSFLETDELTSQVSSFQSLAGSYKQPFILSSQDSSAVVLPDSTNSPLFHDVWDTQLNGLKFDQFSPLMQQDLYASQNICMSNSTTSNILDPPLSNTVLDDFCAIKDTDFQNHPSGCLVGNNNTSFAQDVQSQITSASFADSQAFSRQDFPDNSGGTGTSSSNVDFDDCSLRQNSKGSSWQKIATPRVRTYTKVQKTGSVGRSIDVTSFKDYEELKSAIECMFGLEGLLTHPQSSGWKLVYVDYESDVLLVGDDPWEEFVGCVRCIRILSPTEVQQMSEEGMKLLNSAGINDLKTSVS
Chain of UniProt Q84WU6 (whole entry, looked up): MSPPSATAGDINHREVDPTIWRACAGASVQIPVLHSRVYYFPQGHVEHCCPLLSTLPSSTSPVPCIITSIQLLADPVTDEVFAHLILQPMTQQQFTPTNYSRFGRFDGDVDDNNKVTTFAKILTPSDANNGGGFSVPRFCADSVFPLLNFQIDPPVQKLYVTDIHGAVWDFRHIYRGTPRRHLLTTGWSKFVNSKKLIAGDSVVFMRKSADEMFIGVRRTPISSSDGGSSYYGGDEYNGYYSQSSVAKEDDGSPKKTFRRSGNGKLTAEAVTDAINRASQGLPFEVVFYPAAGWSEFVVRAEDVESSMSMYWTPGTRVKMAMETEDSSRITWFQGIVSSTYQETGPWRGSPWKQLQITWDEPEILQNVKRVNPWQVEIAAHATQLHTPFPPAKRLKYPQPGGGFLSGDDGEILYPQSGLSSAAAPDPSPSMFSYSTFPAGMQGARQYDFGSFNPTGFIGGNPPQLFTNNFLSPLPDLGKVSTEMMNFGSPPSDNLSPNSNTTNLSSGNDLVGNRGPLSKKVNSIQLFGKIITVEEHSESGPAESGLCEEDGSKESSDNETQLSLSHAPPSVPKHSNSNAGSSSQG
Chain of UniProt Q93WC4 (whole entry, looked up): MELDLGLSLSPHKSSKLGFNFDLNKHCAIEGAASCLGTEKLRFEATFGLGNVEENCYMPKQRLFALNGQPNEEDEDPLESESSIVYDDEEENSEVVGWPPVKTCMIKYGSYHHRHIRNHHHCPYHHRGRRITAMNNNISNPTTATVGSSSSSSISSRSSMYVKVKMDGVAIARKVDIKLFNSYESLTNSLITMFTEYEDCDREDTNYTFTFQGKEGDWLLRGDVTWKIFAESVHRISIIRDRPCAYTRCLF

Set 1
Target: ABI1, truncated, D143A, DHFR fusion (Arabidopsis thaliana, UniProt P49597)
Method: DHFR PCA, dose-response
Sample: yeast
Setting: Hill fit, not affinity
Together with: (+)-ABA, dose series
Reading: lower = more sensitive
Starting sequence: PYL1, truncated, DHFR fusion (Arabidopsis thaliana, UniProt Q8VZS8); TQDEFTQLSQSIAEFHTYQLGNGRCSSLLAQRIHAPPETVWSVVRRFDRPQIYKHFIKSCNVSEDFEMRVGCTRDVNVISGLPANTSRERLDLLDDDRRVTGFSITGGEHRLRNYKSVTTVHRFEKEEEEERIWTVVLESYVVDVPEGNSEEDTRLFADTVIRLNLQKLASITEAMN
The ABA EC50 of `E131P` is reported as 3.24 µM.
The ABA EC50 of `S104N` is reported as 1580 µM.
The ABA EC50 of `F124M` is reported as 1.7 µM.
With `D153V` the ABA EC50 was 1970 µM.
The ABA EC50 of `I172V` is reported as 2.16 µM.
`L138F` has an ABA EC50 of 5.59 µM.
`Q2I` has an ABA EC50 of 30 µM.
`L20V` has an ABA EC50 of 4.43 µM.

Set 2
Molecule: B1 (IAA15)
Method: two-hybrid
Reading: higher = firmer interaction
B1: IAA15 (Arabidopsis thaliana, UniProt Q9C966); chain MSPEEYVRVWPDSGDLGGTELTLALPGTPTNASEGPKKFGNKRRFLETVDLKLGEAHENNYISSMVTNDQLVGWPPVATARKTVRRKYVKVALDGAAYLRKVDLGMYDCYGQLFTALENMFQGIITICRVTELERKGEFVATYEDKDGDLMLVGDVPWMMFVESCKRMRLMKTGDAIGL
ARF17 (Arabidopsis thaliana, UniProt Q84WU6); weak activation fusion; reference: out of 4 tests — positive tests: 0.
IAA18 (Arabidopsis thaliana, UniProt O24408); reference: out of 2 tests — positive tests: 2.
ARF7 1030-1164 (Arabidopsis thaliana, UniProt P93022); reference: out of 4 tests — positive tests: 3.
For ARF5 788-902 (Arabidopsis thaliana, UniProt P93024); reference: out of 4 tests: positive tests read 4.
IAA19 (Arabidopsis thaliana, UniProt O24409); reference: out of 4 tests — positive tests: 3.
IAA29 (Arabidopsis thaliana, UniProt Q93WC4); reference: out of 4 tests — positive tests: 1.

Set 3
Target: Hepatocyte nuclear factor 3-alpha (Foxa1, Mus musculus, UniProt P35582, residues 1-468, full length assumed)
Method: EMSA with sequencing
Molecule type: double-stranded DNA, one strand shown
Sample: in vitro
Concentration: 10 and 20 nM
Setting: whole designed probe, mean of two concentrations, ends assumed
Reference: negative control set to 0
Reading: higher = stronger binding
Target sequence (chain): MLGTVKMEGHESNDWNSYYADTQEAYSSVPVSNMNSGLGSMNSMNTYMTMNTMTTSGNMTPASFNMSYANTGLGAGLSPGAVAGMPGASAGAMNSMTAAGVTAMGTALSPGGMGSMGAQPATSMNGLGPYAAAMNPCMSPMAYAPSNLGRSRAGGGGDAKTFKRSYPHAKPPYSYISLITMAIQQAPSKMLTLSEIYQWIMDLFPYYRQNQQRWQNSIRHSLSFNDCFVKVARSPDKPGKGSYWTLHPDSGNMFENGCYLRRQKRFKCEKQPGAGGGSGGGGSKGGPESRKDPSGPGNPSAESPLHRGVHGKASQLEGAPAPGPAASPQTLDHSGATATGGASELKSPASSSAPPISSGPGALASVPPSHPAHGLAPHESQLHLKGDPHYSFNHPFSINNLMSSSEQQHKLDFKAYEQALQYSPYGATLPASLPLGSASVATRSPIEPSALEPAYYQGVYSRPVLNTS
`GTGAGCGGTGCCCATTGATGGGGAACATACAGGTTTTATAACATATGTAGTTAAGGTTTCAAAAGTGAGATTATGTCTCAACTAACTATAACTGAAATAGAAGAGTGTATCTATTTCAATGTAATCTAGATGACTGATAATGAGAAAAATGATCCTTATAAAGAATAGCAAATCATGATCCTAAGACAGTAAGTGTCAAAGCTGATGGGAGGATGCTATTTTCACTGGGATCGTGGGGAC`: “normalised bound fraction” -0.0635 ratio.
For `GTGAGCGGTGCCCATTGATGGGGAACTTCCATCGTTTGCTTTTACTGTAAAGTAATATTAAGGAATTAGCCAACAGAAATTACTGAGTGACTGGTATTTACCTCTGATCCTTTGAGGACTAGATTGCATTTCAGCTCAGGTTTTCTGACTAAGGAGATAAAAACATCTCCTGGACTATTTATTTTTTTCCGTGACCTAACCCAAGGACTTTGCACTGGGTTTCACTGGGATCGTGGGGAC`, “normalised bound fraction” read 0.122 ratio.
`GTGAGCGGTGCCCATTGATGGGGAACATCTTCCCCCTCTTCCTTGCCCCACCAGCTCACCTACGGGGGTTATTTGCACAAAGGAAAATAAATAAAGCCGGCATTCGTTAACGCAGTTCACGCGCATACTGCTGTTTGCTCTGCATGAATCATGGTCCTTACGCGACGCCAGGCTCCGGGAGAGCAAAGCACCGTGTCAGGCGCATGATCCGGGCTCGCCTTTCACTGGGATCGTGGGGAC`: “normalised bound fraction” 0.393 ratio.
`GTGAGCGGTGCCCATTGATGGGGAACATCTTCCCCCTCTTCCTTGCCCCACCAGCTCACCTTCCCGGGTTATTTGCAGATAGGAAAATAAATAAAGCCGGCATTCGTTAGCATCCCGACTCTCATATCGGCTGTTTGCTCTGGATGAATCATGGTCCTTTGGCGACGCCAGGCTCCGGGAGAGCAAAGCACCGTGTCAGGGCCATGATCCGGGGTGGCCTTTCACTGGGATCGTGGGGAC` — result for “normalised bound fraction”: 0.366 ratio.
Under “normalised bound fraction”, `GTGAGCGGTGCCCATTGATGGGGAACAATCCAGCTACCTATCTTCAGTTCCTTGGCCTTCAGCTGGCAGTGAAACAGACACATCAGCTTTAAGACTGGCAGCCAAATAGTTAACGATCTGTAAACATACATAGAGAGTTCCTATTACGCAAGGTTCAAACAGACTGGATGAAAGCCCTTCCATAAAGAACCCTTTAGGTGATGATGCTAAAATTATTTTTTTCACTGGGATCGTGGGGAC` is recorded as 0.272 ratio.

Mixed results
`N#Cc1cnc2cnc(NCc3cccnc3)cc2c1Nc1ccc(F)c(Cl)c1` gave a remaining activity of 84.1% (Protein-tyrosine kinase 6 (PTK6, Homo sapiens, UniProt Q13882); enzyme activity, inhibitor; 0.5 µM; reference: control).
